{"data": "Assay results from different studies", "note": "Each numbered part is a random draw from the data of one study; scales do not carry over between parts.", "chain of UniProt Q13882 (whole entry, looked up)": "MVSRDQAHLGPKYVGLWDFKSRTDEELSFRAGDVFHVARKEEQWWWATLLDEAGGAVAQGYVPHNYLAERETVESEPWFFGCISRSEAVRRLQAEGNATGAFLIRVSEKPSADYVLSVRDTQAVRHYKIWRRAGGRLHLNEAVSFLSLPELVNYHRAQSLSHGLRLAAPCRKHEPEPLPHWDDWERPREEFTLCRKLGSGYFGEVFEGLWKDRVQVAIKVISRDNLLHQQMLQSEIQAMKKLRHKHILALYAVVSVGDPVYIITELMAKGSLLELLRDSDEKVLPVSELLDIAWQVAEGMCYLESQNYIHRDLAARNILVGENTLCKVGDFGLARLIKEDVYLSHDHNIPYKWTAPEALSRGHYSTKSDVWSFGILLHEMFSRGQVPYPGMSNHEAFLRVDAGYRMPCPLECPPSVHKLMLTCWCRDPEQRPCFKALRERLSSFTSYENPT", "chain of UniProt P10721 (whole entry, looked up)": "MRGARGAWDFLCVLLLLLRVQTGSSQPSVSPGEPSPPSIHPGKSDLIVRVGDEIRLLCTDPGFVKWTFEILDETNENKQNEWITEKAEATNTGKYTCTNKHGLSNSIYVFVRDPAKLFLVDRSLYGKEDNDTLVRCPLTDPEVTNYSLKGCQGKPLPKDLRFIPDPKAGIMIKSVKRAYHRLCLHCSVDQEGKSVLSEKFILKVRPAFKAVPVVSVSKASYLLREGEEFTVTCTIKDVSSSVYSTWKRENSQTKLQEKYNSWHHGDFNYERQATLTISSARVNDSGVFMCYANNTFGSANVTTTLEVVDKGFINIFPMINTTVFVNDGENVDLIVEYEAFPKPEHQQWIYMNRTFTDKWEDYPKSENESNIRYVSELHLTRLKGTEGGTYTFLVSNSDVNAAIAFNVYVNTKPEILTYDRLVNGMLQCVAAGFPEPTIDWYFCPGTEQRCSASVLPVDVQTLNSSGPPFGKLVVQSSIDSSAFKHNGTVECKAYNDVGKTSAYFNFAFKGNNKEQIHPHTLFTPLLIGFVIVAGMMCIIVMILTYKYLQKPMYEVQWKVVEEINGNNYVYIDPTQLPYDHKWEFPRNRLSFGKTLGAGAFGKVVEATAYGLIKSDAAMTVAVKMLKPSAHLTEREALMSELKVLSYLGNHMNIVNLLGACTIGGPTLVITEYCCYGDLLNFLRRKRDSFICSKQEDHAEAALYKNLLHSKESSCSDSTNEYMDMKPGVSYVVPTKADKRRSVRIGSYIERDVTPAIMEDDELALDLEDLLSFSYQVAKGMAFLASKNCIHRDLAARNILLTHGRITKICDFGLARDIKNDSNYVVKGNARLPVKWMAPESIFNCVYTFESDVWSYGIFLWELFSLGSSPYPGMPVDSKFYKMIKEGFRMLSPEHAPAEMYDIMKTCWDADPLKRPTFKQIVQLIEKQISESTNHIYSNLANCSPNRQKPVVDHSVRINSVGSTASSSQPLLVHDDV", "chain of UniProt P42679 (whole entry, looked up)": "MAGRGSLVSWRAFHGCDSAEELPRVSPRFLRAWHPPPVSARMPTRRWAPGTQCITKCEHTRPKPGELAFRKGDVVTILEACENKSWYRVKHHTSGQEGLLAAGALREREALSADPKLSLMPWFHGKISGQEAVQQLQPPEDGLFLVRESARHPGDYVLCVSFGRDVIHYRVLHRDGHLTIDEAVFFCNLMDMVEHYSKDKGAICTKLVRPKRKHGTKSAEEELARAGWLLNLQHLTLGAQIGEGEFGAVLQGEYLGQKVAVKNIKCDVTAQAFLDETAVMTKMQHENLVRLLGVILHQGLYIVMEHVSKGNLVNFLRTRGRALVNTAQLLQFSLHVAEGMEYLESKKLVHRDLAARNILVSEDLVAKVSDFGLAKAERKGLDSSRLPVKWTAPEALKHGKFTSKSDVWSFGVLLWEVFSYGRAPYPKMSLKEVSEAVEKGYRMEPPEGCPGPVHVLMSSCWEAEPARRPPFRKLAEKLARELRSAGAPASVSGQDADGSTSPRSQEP", "chain of UniProt P11362 (whole entry, looked up)": "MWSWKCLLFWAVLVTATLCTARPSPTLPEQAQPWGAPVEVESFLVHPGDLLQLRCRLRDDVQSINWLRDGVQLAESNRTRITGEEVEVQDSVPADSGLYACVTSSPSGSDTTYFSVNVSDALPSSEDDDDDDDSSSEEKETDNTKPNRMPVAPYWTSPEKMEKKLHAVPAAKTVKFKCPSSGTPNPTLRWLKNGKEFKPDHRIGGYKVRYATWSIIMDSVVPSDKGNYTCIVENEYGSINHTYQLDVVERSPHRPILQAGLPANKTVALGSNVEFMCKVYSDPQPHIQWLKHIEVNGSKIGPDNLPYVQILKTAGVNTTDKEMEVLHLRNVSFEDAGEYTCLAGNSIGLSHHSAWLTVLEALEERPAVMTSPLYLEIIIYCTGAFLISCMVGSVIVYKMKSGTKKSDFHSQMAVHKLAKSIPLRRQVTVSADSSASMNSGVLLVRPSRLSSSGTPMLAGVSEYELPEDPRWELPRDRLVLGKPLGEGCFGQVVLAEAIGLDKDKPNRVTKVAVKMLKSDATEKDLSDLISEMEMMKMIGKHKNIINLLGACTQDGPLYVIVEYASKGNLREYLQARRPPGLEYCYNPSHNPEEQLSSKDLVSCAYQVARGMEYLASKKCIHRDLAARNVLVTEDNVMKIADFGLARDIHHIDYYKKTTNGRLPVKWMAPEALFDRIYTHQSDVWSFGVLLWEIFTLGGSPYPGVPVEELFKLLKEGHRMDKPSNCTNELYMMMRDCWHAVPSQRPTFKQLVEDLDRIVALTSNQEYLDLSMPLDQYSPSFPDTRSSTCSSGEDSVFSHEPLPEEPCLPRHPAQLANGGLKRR", "chain of UniProt O14757 (whole entry, looked up)": "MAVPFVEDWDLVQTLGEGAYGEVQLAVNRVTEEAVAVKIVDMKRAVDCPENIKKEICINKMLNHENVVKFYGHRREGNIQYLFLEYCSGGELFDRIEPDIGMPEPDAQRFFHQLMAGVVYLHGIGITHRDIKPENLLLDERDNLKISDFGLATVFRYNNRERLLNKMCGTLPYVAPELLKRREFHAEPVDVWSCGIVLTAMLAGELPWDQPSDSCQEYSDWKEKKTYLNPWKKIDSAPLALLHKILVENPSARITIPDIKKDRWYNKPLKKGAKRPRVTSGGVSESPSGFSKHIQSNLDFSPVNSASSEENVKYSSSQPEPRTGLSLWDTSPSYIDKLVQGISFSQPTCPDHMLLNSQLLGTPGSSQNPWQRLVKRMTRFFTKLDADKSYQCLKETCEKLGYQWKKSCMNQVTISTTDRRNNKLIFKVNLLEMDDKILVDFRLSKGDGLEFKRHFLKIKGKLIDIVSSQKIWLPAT", "chain of UniProt P50613 (whole entry, looked up)": "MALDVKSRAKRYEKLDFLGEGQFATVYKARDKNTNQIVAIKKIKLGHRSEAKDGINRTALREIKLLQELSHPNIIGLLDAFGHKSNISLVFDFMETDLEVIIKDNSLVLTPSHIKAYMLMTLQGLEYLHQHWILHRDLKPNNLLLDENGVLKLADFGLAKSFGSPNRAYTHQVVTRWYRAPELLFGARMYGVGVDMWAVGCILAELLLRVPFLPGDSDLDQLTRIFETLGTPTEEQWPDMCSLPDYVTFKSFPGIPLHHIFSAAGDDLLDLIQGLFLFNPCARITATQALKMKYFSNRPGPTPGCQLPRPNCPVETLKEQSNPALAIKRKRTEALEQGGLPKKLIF"}
{"data": "Series 1", "Compound": "C[C@H](NC(=O)c1cnc2n1[C@](C)(Cc1ccc(C#N)cc1)C(=O)N2c1cc(Cl)c(F)c(Cl)c1)C(=O)NC1(c2ccccn2)CC1", "effect on": "cell-free assay", "method": "competition with immobilised ligand", "concentration": "1 µM"}
{"target": "Macrophage colony-stimulating factor 1 receptor (CSF1R, Homo sapiens, UniProt P07333)", "remaining binding": "100%"}
{"target": "Protein-tyrosine kinase 2-beta (PTK2B, Homo sapiens, UniProt Q14289)", "remaining binding": "100%"}
{"target": "Ephrin type-A receptor 2 (EPHA2, Homo sapiens, UniProt P29317)", "remaining binding": "75%"}
{"target": "Mitogen-activated protein kinase 3 (MAPK3, Homo sapiens, UniProt P27361)", "remaining binding": "91%"}
{"target": "Cyclin-dependent kinase 7 (CDK7, Homo sapiens, UniProt P50613)", "remaining binding": "94%"}
{"target": "Serine/threonine-protein kinase B-raf (BRAF, Homo sapiens, UniProt P15056, V600E)", "remaining binding": "100%"}
{"target": "Phosphatidylinositol 4,5-bisphosphate 3-kinase catalytic subunit alpha isoform (PIK3CA, Homo sapiens, UniProt P42336, E545K)", "remaining binding": "100%"}
{"target": "Casein kinase I isoform gamma-1 (CSNK1G1, Homo sapiens, UniProt Q9HCP0)", "remaining binding": "99%"}
{"target": "Megakaryocyte-associated tyrosine-protein kinase (MATK, Homo sapiens, UniProt P42679)", "remaining binding": "100%"}
{"target": "Cyclin-dependent kinase 5 (CDK5, Homo sapiens, UniProt Q00535)", "remaining binding": "100%"}
{"target": "Protein-tyrosine kinase 6 (PTK6, Homo sapiens, UniProt Q13882)", "remaining binding": "92%"}
{"target": "Serine/threonine-protein kinase Chk1 (CHEK1, Homo sapiens, UniProt O14757)", "remaining binding": "100%"}
{"target": "Serine/threonine-protein kinase PRP4 homolog (PRPF4B, Homo sapiens, UniProt Q13523)", "remaining binding": "77%"}
{"data": "Series 2", "target": "Calcium/calmodulin-dependent protein kinase type II subunit alpha (CAMK2A, Homo sapiens, UniProt Q9UQM7)", "effect on": "enzyme activity", "action": "inhibitor", "concentration": "10 µM", "chain of UniProt Q9UQM7 (whole entry, looked up)": "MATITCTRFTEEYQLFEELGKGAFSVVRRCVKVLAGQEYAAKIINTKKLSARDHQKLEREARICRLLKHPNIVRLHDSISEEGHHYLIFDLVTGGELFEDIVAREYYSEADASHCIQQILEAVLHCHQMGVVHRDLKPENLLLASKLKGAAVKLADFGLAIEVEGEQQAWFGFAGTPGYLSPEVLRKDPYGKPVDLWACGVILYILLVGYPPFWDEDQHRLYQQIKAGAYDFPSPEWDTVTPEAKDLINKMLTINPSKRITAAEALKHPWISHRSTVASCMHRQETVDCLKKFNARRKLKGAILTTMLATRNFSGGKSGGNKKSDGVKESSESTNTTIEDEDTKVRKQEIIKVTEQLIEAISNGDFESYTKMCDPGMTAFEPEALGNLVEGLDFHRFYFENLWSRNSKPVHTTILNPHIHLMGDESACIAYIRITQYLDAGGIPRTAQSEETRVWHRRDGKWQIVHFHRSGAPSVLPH"}
{"Structure (SMILES)": "C[C@@H]1O[C@@H](O[C@H]2[C@H](O[C@H]3[C@H](O[C@H]4CC[C@@]5(C)[C@@H](CC[C@]6(C)[C@@H]5CC=C5[C@@H]7CC(C)(C)C[C@@H](O)[C@]7(C)CC[C@]56C)[C@@]4(C)CO)O[C@H](C(=O)O)[C@@H](O)[C@@H]3O)O[C@H](CO)[C@H](O)[C@@H]2O)[C@H](O)[C@H](O)[C@H]1O", "inhibition [%]": 13}
{"Structure (SMILES)": "CC1(O)CCC(C(C)(C)O)CC1 (centres unmarked)", "inhibition [%]": -2}
{"Structure (SMILES)": "COc1ccc(-c2oc3cc(O)cc(O)c3c(=O)c2O)cc1", "inhibition [%]": 35}
{"Structure (SMILES)": "O=C(O)CNC(=O)[C@@H]1CCCN1", "inhibition [%]": 2}
{"Structure (SMILES)": "CCCCC(C)CCC(=O)O (centres unmarked)", "inhibition [%]": 29}
{"Structure (SMILES)": "C[C@@H]1CC[C@@]2(OC1)O[C@H]1C[C@H]3[C@@H]4CC[C@H]5C[C@@H](O[C@@H]6O[C@H](CO)[C@H](O[C@@H]7O[C@H](CO)[C@@H](O)[C@H](O[C@@H]8OC[C@@H](O)[C@H](O)[C@H]8O)[C@H]7O[C@@H]7O[C@H](CO)[C@H](O)[C@H](O)[C@H]7O)[C@H](O)[C@H]6O)CC[C@]5(C)[C@H]4CC(=O)[C@]3(C)[C@H]1[C@@H]2C", "inhibition [%]": -19}
{"Structure (SMILES)": "Nc1nc(=O)n([C@@H]2CS[C@H](CO)O2)cc1F", "inhibition [%]": 3}
{"Structure (SMILES)": "C=C1C(=O)[C@@]23[C@H](O)C[C@@H]4C(C)(C)CC[C@H](O)[C@@]4(CO)[C@@H]2CC[C@@H]1[C@H]3O", "inhibition [%]": 22}
{"Structure (SMILES)": "COc1ccc(C2C(=O)c3ccccc3C2=O)cc1", "inhibition [%]": -7}
{"Structure (SMILES)": "O=C(CCCN1CCC(O)(c2ccc(Cl)cc2)CC1)c1ccc(F)cc1", "inhibition [%]": -14}
{"Structure (SMILES)": "CC1(C)[C@H]2CC=C(C=O)[C@@H]1C2", "inhibition [%]": -3}
{"Structure (SMILES)": "C=C(CC[C@@H](C(=O)O)[C@H]1[C@H](O)C[C@@]2(C)C3=CC[C@@H](C(=C)C)[C@](C)(CCC(=O)O)C3=CC[C@]12C)C(C)C", "inhibition [%]": -13}
{"Structure (SMILES)": "CC(C)(c1ccc(O)cc1)c1ccc(O)cc1", "inhibition [%]": 21}
{"Structure (SMILES)": "CC1(C)CC[C@]2(C(=O)O[C@@H]3O[C@H](CO)[C@@H](O)[C@H](O)[C@H]3O)CC[C@]3(C)C(=CC[C@@H]4[C@@]5(C)CC[C@H](O[C@@H]6O[C@H](C(=O)O)[C@@H](O)[C@H](O)[C@H]6O[C@H]6OC[C@@H](O)[C@H](O)[C@H]6O)C(C)(C)[C@@H]5CC[C@]43C)[C@@H]2C1", "inhibition [%]": 2}
{"Structure (SMILES)": "O=C(O)c1ccco1", "inhibition [%]": 20}
{"data": "Series 3", "SMILES": "O=C(Nc1cnn(-c2csc(C(=O)NC3COC3)c2)c1)Nc1ccccc1Cl", "effect on": "enzyme activity", "concentration": "5 µM", "reference": "untreated control"}
{"target": "Mitogen-activated protein kinase kinase kinase kinase 2 (MAP4K2, Homo sapiens, UniProt Q12851)", "remaining activity": "102%"}
{"target": "Dual specificity mitogen-activated protein kinase kinase 6 (MAP2K6, Homo sapiens, UniProt P52564)", "remaining activity": "95.1%"}
{"target": "Serine/threonine-protein kinase Chk2 (CHEK2, Homo sapiens, UniProt O96017)", "remaining activity": "94.7%"}
{"target": "Calcium/calmodulin-dependent protein kinase type II subunit gamma (CAMK2G, Homo sapiens, UniProt Q13555)", "remaining activity": "94.5%"}
{"target": "Serine/threonine-protein kinase Nek1 (NEK1, Homo sapiens, UniProt Q96PY6)", "remaining activity": "115%"}
{"target": "MAP/microtubule affinity-regulating kinase 4 (MARK4, Homo sapiens, UniProt Q96L34)", "remaining activity": "101%"}
{"target": "Serine/threonine-protein kinase DCLK2 (DCLK2, Homo sapiens, UniProt Q8N568)", "remaining activity": "97.5%"}
{"target": "Mast/stem cell growth factor receptor Kit (KIT, Homo sapiens, UniProt P10721)", "remaining activity": "88.3%"}
{"target": "MAP kinase-activated protein kinase 5 (MAPKAPK5, Homo sapiens, UniProt Q8IW41)", "remaining activity": "91%"}
{"target": "Dual specificity protein kinase CLK4 (CLK4, Homo sapiens, UniProt Q9HAZ1)", "remaining activity": "63.2%"}
{"target": "Fibroblast growth factor receptor 1 (FGFR1, Homo sapiens, UniProt P11362)", "remaining activity": "98.5%"}
{"target": "TRAF2 and NCK-interacting protein kinase (TNIK, Homo sapiens, UniProt Q9UKE5)", "remaining activity": "51.9%"}
{"target": "Dual specificity protein kinase CLK3 (CLK3, Homo sapiens, UniProt P49761)", "remaining activity": "117%"}
{"target": "Vascular endothelial growth factor receptor 1 (FLT1, Homo sapiens, UniProt P17948)", "remaining activity": "96.8%"}
{"target": "Cyclin-dependent kinase 3, with cyclin E2 (CDK3, Homo sapiens, UniProt Q00526)", "remaining activity": "95.2%"}
{"data": "Series 4", "SMILES": "C=CCc1ccc(O)c(-c2ccc(O)c(CC=C)c2)c1", "effect on": "chloride current", "method": "whole-cell voltage clamp", "ANO1 D383A/del476-501": "Anoctamin-1 (ANO1, Homo sapiens, UniProt Q5XXA6, D383A/del476-501)", "ANO1 del476-501/R631K": "Anoctamin-1 (ANO1, Homo sapiens, UniProt Q5XXA6, del476-501/R631K)", "chain of UniProt Q5XXA6 (whole entry, unmodified, looked up)": "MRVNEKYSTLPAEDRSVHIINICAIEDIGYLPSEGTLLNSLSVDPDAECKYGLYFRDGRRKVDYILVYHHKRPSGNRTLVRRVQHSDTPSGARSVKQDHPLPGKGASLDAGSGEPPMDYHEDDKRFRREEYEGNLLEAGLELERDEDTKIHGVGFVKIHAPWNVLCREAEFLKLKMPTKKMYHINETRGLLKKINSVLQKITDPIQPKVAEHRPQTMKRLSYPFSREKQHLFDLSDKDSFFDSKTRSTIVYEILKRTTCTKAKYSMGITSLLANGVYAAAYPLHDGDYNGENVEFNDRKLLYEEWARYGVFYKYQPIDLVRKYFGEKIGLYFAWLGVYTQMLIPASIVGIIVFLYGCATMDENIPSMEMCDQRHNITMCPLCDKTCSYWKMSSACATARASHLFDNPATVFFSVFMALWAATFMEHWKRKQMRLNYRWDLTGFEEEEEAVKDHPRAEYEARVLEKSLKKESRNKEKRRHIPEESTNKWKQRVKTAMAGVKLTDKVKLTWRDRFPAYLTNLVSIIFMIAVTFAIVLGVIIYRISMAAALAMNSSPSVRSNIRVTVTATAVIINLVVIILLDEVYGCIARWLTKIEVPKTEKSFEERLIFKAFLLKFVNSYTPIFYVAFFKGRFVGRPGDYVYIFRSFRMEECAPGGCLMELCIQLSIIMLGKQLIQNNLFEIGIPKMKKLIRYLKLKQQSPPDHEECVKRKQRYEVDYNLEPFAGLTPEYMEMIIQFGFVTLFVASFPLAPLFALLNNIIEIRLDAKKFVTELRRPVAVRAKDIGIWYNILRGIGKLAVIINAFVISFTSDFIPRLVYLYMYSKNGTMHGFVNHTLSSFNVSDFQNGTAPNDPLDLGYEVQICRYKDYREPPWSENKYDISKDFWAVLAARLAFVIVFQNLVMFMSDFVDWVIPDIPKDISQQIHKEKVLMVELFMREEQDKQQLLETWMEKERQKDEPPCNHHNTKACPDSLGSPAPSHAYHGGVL"}
{"target": "Anoctamin-1 (ANO1, Homo sapiens, UniProt Q5XXA6, del476-501/F627A)", "setting": "membrane voltage -60 mV", "IC50 [µM]": 5.69}
{"target": "ANO1 D383A/del476-501", "setting": "membrane voltage 80 mV", "IC50 [µM]": 4.66}
{"target": "Anoctamin-1 (ANO1, Homo sapiens, UniProt Q5XXA6, del476-501/F807I)", "action": "inhibitor", "setting": "F781I mutant at 80 mV", "IC50 [µM]": 6.91}
{"target": "Anoctamin-1 (ANO1, Homo sapiens, UniProt Q5XXA6, del476-501/F807A)", "setting": "membrane voltage 80 mV", "IC50 [µM]": 17.9}
{"target": "ANO1 del476-501/R631K", "action": "inhibitor", "setting": "R605K mutant at 60 mV", "IC50 [µM]": 7.4}
{"target": "Anoctamin-1 (ANO1, Homo sapiens, UniProt Q5XXA6, del476-501/L548A)", "setting": "membrane voltage -20 mV", "IC50 [µM]": 6.37}
{"target": "Anoctamin-1 (ANO1, Homo sapiens, UniProt Q5XXA6, del476-501/F628W)", "action": "inhibitor", "concentration": "20 mV holding voltage", "IC50 [µM]": 12.3}
{"target": "Anoctamin-1 (ANO1, Homo sapiens, UniProt Q5XXA6, del476-501/F646A)", "setting": "membrane voltage 20 mV", "IC50 [µM]": 5.76}
{"target": "Anoctamin-1 (ANO1, Homo sapiens, UniProt Q5XXA6, del476-501)", "setting": "membrane voltage 80 mV", "together with": "300 nM Ca2+", "IC50 [µM]": 4.85}
{"target": "Anoctamin-1 (ANO1, Homo sapiens, UniProt Q5XXA6, del476-501/F807Y)", "action": "inhibitor", "concentration": "20 mV holding voltage", "IC50 [µM]": 9.52}
{"target": "ANO1 del476-501/R631K", "action": "inhibitor", "setting": "R605K mutant at -60 mV", "IC50 [µM]": 11.3}
{"target": "Anoctamin-1 (ANO1, Homo sapiens, UniProt Q5XXA6, del476-501/F628Y)", "action": "inhibitor", "concentration": "80 mV holding voltage", "IC50 [µM]": 23.3}
{"target": "ANO1 D383A/del476-501", "setting": "membrane voltage 40 mV", "IC50 [µM]": 4.33}
{"note": "Some of these lines once more (series 3):"}
{"target": "MAP kinase-activated protein kinase 5 (MAPKAPK5, Homo sapiens, UniProt Q8IW41)", "remaining activity": "91%"}
{"target": "Serine/threonine-protein kinase Chk2 (CHEK2, Homo sapiens, UniProt O96017)", "remaining activity": "94.7%"}
{"target": "Dual specificity protein kinase CLK4 (CLK4, Homo sapiens, UniProt Q9HAZ1)", "remaining activity": "63.2%"}
{"target": "Calcium/calmodulin-dependent protein kinase type II subunit gamma (CAMK2G, Homo sapiens, UniProt Q13555)", "remaining activity": "94.5%"}
{"target": "Mast/stem cell growth factor receptor Kit (KIT, Homo sapiens, UniProt P10721)", "remaining activity": "88.3%"}
{"target": "Dual specificity protein kinase CLK3 (CLK3, Homo sapiens, UniProt P49761)", "remaining activity": "117%"}
{"target": "Serine/threonine-protein kinase Nek1 (NEK1, Homo sapiens, UniProt Q96PY6)", "remaining activity": "115%"}
{"target": "Vascular endothelial growth factor receptor 1 (FLT1, Homo sapiens, UniProt P17948)", "remaining activity": "96.8%"}
{"target": "Mitogen-activated protein kinase kinase kinase kinase 2 (MAP4K2, Homo sapiens, UniProt Q12851)", "remaining activity": "102%"}
